Published values of several laboratories.
Protocols differ between the studies behind these lines. ± gives the spread as reported.

For `CCC(=O)c1ccc2c(c1)sc(=O)n2CCN(C)C12CC3CC(CC(C3)C1)C2`, the half-life was 0.0205 h (metabolic stability; rat, liver microsomes; 1 µM, pH 7.4).
For `COc1cccc(CN)c1O`, the half-life was 0.6 h (male C57BL/6 mouse, kidney; intraperitoneal, 200 mg/kg, single dose).
`COc1cc(OC)c(/C=C/S(=O)(=O)Cc2ccc(OC)c(NCC(=O)O)c2)c(OC)c1` gave a half-life of 4.03 ± 2.92 h (cancer patients, phase I, plasma; oral, 560 mg twice daily, day 21 cycle 1).
`CNCc1ccc(-c2[nH]c3cc(F)cc4c3c2CCNC4=O)cc1` has a half-life of 24.1 h (human, plasma; oral, 300 mg, fasted, median).
`O=c1sc2ccccc2n1CCNC12CC3CC(CC(C3)C1)C2` gave a half-life of 0.025 h (metabolic stability; rat, liver microsomes; 1 µM, pH 7.4).
For `NC(=O)c1cnc2[nH]ccc2c1N[C@@H]1[C@@H]2CC3C[C@H]1C[C@@](O)(C3)C2`, the half-life was 10 h (healthy Caucasian men, plasma; oral, 60 mg, single dose fasted).
`Oc1ccc(-c2nc(-c3ccc(Oc4ccccc4)cc3)no2)cc1` gave a half-life of 4.4 h (CD-1 mouse, plasma; intravenous, 50 mg/kg, single dose).
`C1CCc2c(c(N3CCOCC3)nc3sc4c(N5CCNCC5)nnnc4c23)C1` has a half-life of 0.66 h (male Swiss mouse, plasma; intravenous, 3 mg/kg).
For `Cc1ccc(NC(=O)c2ccc(CN3CCN(C)CC3)cc2)cc1Nc1nccc(-c2cncc(-c3oncc3C)c2)n1`, the half-life was 10 h (Parkinson's disease patients, plasma; oral, 50.0 mg once daily, day 1, 7-day dosing, mean).
With `Nc1ccc(-c2nc(-c3ccc(Oc4ccc(C(F)(F)F)cc4)cc3)no2)cc1` the half-life was 20 h (CD-1 mouse, plasma; intravenous, 50 mg/kg, single dose).
`CCCc1ccc2c(c1)sc(=O)n2CCN(C)C12CC3CC(CC(C3)C1)C2` has a half-life of 0.0315 h (metabolic stability; rat, liver microsomes; 1 µM, pH 7.4).

Some of these lines once more:
For `NC(=O)c1cnc2[nH]ccc2c1N[C@@H]1[C@@H]2CC3C[C@H]1C[C@@](O)(C3)C2`, the half-life was 10 h (healthy Caucasian men, plasma; oral, 60 mg, single dose fasted).
